Experimental data from different studies.
Lines come from different studies, so protocols differ.
Target: Muscarinic acetylcholine receptor M3 (CHRM3, Homo sapiens, UniProt P20309)
Chain of UniProt P20309 (whole entry, looked up): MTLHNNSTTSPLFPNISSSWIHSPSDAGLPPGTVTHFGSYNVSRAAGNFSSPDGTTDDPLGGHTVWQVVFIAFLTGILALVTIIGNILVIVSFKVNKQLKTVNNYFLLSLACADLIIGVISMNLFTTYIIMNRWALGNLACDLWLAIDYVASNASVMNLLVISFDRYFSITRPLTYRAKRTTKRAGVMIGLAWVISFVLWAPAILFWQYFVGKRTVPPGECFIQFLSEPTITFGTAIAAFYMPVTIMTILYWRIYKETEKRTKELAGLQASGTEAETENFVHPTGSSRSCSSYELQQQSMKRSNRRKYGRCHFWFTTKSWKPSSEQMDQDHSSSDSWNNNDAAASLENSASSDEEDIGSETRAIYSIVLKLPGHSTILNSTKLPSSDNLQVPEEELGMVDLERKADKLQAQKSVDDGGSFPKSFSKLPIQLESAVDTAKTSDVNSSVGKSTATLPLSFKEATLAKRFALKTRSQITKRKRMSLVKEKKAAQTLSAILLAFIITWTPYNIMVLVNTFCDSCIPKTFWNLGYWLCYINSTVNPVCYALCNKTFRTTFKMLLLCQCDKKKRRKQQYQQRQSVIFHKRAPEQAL

C[N+]1(C)CCC(OC(=O)C(c2ccccc2)c2ccccc2)CC1.[I-]  Hill coefficient (binding, antagonist, radioligand binding): 1.2
CCN1/C(=C/C(C)=O)Sc2ccc(F)cc21  inhibition (10 µM): 0%
O=C(CCNC(=O)CNC(=O)CC(c1ccccc1)(c1ccccc1)c1ccccc1)NCC1CCN(Cc2ccc(F)cc2)CC1  selectivity ratio ([3H]N-methylscopolamine binding; baseline: IC50 M2 over M3): 0.42
CN(C(=O)n1cnc(-c2ccc[n+]([O-])c2)c1)C1CCCCC1  inhibition (receptor binding; 10 µM, subtype M3): -8.73%
OCCCN1CC[C@@H]2C[C@H]1c1cc(-c3ccc(C(F)(F)F)cc3)ccc12  inhibition (radioligand binding, PDSP competition binding; 10 µM): < 50%
CN1CCC(CNc2ccc3ncc(-c4cccc(OC(F)(F)F)c4)n3n2)CC1  response (cell-based; 10 µM; baseline: control): > 50%
O=C(NO)c1ccc(CN2CCCCc3ccccc32)c(F)c1  inhibition (radioligand binding, radioligand displacement; 10 µM): -38.1%
O=C(CCNC(=O)CNC(=O)CC(c1ccccc1)(c1ccccc1)c1ccccc1)NC[C@H]1CCCN(Cc2ccc(F)cc2)C1  selectivity ratio ([3H]N-methylscopolamine binding; baseline: IC50 M2 over M3): 34.2
CCS(=O)(=O)c1nc(S(=O)(=O)c2ccccc2Cl)c(N2CCN(C)C(=O)[C@H]2C)s1  inhibition (10 µM): 1.17%

Some of these lines once more:
O=C(NO)c1ccc(CN2CCCCc3ccccc32)c(F)c1  inhibition (radioligand binding, radioligand displacement; 10 µM): -38.1%
